Earlier results that unrelated publications cite.
Numbered parts are unrelated; values within a part may stem from several laboratories. Numbers after ± are the reported error.

Study 1
SMILES: OCCN1CCN(CCC=C2c3ccccc3Sc3ccc(C(F)(F)F)cc32)CC1
Cell line: MCF7
Technique: microarray
Tested at: concentration not given
Endpoint: fold change
item: SYNGR3 mRNA; baseline: DMSO: 0.97
item: MAFF mRNA (probe 36711_at); baseline: vehicle (DMSO): 1.52
item: ISG20 mRNA (probe 33304_at); baseline: vehicle (DMSO): 1.18

Further values, each from its own experiment
CNC1CC(c2ccc(Cl)c(Cl)c2)c2ccccc21 (stereo not drawn)  antiparasitic activity (Toxoplasma gondii; parasite growth, drug repurposing screen; concentration not given): active
CO[C@@H]1CC/C=C/c2cccc(c2)[C@@H](CCNC(=O)OC(C)(C)C)OC(=O)[C@@H]2CCCN(N2)C(=O)[C@H](C)NC(=O)[C@H](C(C)C)NC(=O)[C@@H]1C  Kd (cyclophilin; inhibitor): 24 nM
Nc1nc2c(ncn2[C@@H]2O[C@H](CO)[C@@H](O)[C@H]2O)c(=S)[nH]1  CC50 (Caco-2): 630 ± 420 nM
COc1ccc(-c2sc(NC(=O)C(C)(C)C)nc2C)cc1S(=O)(=O)Nc1ccc(O)cc1  IC50 (PI4K-IIIbeta; inhibitor): 3.4 nM
CCCCCCCCCCCCCCCCCC[S+](CCC)c1ccccc1C(=O)OCC (stereo not drawn)  CC50 (Caco-2): 890 ± 830 nM
CCOC(=O)[C@@H]1CSCC(=O)N[C@H](CC)C(=O)N(C)[C@@H](C)C(=O)N[C@@H](CC(C)C)C(=O)N(C)[C@H](C)C(=O)N(CC(C)C)CC(=O)N[C@@H](CC(C)C)C(=O)N(C)[C@H](C)C(=O)N[C@@H](CC(C)C)C(=O)N1C  log permeability (Pe) (MDCK): -6.07

Repeated from above (further values, each from its own experiment):
Nc1nc2c(ncn2[C@@H]2O[C@H](CO)[C@@H](O)[C@H]2O)c(=S)[nH]1  CC50 (Caco-2): 630 ± 420 nM
